Experimental data collected from several papers.
Each line is one published result; not all experiments were run side by side. ± marks the error that the study gave.
Bche: Cholinesterase (Bche, Mus musculus, UniProt Q03311)
Ricin A chain: Ricin, A chain (Ricinus communis, UniProt P02879)

The chains behind the UniProt entries cited, without tags or fusion partners. Residues count along the entry.
UniProt Q03311, whole entry, looked up: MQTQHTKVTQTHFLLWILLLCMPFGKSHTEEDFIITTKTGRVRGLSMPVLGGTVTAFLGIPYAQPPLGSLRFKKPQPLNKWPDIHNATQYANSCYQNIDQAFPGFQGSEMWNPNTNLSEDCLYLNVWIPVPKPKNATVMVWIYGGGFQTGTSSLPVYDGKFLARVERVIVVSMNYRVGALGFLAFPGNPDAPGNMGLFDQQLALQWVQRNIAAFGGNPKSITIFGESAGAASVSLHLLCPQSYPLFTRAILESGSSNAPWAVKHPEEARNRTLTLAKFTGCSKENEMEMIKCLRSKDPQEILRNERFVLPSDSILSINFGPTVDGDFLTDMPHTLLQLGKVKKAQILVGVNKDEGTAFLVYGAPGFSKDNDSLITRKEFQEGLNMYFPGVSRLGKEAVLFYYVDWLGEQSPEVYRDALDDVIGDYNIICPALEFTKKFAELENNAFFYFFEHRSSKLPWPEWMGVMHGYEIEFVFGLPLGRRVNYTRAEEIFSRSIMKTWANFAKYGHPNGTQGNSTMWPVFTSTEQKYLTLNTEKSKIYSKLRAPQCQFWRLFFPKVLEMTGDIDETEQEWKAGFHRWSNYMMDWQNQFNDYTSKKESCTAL
UniProt P22303, 32-614 limits assumed: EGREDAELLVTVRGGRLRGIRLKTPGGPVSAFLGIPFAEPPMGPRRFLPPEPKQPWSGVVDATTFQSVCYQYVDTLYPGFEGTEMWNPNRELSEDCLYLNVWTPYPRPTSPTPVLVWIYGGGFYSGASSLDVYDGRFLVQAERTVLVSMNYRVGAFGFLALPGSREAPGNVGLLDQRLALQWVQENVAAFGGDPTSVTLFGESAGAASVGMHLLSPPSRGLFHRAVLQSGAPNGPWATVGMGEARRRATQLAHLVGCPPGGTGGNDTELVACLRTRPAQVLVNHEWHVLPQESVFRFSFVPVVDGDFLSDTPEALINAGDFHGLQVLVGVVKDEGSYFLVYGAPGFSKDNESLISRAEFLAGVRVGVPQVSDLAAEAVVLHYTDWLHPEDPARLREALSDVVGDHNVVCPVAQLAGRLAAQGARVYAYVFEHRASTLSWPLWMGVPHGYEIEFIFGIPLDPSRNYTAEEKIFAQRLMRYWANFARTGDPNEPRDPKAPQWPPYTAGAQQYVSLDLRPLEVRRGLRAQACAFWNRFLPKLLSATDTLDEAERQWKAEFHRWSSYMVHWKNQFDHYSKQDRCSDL
UniProt P22303, whole entry, looked up: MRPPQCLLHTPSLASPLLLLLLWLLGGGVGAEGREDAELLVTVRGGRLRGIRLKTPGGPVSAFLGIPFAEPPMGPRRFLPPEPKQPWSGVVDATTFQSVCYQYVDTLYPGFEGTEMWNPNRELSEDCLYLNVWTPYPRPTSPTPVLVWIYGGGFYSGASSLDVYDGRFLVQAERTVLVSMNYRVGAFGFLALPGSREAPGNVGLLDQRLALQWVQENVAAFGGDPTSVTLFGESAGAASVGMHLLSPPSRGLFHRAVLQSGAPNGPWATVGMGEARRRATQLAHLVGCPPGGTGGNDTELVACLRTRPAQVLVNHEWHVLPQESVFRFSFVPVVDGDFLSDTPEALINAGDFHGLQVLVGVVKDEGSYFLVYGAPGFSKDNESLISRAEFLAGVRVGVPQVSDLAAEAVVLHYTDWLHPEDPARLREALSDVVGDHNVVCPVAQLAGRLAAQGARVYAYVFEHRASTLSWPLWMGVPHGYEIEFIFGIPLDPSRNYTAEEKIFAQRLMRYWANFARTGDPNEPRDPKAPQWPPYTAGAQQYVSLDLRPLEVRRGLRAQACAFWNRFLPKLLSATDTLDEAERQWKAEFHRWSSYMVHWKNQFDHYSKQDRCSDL
UniProt P35372, whole entry: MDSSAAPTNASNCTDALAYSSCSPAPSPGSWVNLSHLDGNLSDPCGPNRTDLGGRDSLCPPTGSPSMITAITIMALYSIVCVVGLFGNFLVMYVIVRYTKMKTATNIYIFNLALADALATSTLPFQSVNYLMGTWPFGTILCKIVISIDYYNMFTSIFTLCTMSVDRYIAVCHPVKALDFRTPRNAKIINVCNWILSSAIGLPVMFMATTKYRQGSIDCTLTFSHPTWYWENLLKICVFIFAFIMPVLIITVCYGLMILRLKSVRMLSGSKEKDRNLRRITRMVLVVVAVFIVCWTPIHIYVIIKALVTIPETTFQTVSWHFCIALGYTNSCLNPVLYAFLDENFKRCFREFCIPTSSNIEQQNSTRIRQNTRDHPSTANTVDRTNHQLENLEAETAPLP
UniProt O42275, whole entry, looked up: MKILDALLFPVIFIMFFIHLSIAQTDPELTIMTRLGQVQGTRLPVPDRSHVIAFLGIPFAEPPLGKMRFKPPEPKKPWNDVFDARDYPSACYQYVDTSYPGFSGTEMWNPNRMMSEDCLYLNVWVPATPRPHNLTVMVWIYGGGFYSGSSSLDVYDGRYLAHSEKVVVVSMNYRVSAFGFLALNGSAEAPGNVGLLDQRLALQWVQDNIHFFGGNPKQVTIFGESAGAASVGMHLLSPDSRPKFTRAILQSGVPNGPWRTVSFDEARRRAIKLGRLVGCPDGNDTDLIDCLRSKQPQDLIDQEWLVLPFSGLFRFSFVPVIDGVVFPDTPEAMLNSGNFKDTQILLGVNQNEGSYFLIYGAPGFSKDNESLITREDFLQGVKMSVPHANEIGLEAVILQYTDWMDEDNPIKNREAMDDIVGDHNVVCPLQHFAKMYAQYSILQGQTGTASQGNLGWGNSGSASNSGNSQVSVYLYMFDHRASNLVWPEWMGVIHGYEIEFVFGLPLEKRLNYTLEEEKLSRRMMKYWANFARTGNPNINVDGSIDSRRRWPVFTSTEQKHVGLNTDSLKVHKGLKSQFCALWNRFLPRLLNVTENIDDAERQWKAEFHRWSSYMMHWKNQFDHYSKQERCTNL
UniProt Q9GZZ6, 25-450 limits assumed: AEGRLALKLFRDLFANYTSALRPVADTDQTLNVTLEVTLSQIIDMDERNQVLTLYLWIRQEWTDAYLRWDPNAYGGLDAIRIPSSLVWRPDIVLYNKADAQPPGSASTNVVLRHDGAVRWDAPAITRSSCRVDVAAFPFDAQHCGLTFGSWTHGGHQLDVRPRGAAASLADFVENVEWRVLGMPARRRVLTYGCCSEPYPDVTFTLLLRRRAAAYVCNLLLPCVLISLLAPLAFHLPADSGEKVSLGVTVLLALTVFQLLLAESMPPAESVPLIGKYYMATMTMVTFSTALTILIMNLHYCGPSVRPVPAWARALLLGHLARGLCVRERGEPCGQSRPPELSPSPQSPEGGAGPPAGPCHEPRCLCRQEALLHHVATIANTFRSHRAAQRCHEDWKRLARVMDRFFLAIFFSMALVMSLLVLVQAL
UniProt Q9UGM1, 26-479 limits assumed: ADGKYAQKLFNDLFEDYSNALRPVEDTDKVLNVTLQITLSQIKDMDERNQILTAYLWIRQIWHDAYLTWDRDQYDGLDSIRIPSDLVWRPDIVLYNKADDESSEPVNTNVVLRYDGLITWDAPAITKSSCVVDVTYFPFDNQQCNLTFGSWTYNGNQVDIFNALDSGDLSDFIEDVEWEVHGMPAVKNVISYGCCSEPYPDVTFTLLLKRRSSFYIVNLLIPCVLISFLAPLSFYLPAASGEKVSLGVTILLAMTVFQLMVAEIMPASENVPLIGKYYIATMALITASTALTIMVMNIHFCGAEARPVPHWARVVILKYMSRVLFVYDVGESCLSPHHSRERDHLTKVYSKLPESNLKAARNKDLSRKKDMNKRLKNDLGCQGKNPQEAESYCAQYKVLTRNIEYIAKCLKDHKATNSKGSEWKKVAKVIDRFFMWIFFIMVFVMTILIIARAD
UniProt P9WKD3, 41-307 limits assumed: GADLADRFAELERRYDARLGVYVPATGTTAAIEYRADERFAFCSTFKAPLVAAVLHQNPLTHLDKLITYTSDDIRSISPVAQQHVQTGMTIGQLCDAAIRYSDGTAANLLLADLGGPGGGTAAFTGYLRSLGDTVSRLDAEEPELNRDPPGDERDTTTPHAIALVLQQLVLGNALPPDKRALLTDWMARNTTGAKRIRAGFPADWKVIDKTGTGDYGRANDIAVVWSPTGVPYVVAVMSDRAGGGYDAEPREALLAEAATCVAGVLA
UniProt P41145, whole entry: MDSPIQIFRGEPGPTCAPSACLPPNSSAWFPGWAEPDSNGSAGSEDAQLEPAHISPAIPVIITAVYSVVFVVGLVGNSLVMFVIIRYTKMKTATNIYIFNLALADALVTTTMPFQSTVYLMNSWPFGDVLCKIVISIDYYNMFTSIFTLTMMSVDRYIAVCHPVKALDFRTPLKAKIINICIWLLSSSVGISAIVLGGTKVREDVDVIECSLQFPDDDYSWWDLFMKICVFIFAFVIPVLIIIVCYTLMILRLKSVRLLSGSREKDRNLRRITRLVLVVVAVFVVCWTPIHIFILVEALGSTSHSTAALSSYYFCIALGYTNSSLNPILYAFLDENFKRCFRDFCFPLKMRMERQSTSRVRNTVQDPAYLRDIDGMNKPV
UniProt P33535, whole entry: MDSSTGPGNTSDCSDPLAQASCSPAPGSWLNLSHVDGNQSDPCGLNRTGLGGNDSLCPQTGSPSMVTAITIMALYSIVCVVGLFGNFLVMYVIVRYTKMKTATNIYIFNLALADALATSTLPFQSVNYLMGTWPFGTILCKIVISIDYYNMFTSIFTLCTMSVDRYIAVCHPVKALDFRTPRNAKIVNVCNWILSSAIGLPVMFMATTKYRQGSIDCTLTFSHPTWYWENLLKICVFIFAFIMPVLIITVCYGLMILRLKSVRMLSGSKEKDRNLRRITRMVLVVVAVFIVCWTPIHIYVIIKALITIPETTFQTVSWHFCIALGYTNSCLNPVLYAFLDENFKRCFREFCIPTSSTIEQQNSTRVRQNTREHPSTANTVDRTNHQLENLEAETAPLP

SMILES | target | test | system | conditions | scale | measurement | result
CCN(CC)Cc1cc(N)ccc1O | Acetylcholinesterase, paraoxon-inhibited (ACHE, Homo sapiens, UniProt P22303) | reactivation of inhibited enzyme, reactivator |  | added: paraoxon-inhibited enzyme |  | KR | 11 ± 9.1 µM
NC(=O)c1ccc[n+]([C@@H]2O[C@H](COP(=O)([O-])OP(=O)(O)OC[C@H]3O[C@@H](n4cnc5c(N)ncnc54)[C@H](O)[C@@H]3O)[C@@H](O)[C@H]2O)c1 | Inosine-5'-monophosphate dehydrogenase (Clostridium perfringens, UniProt A0A127ELD1) | substrate |  |  |  | Kii | 13 ± 2 mM
C=C(C)[C@H]1CCC(C)=C[C@@H]1c1c(O)cc(CC)cc1O | Mu-type opioid receptor (OPRM1, Homo sapiens, UniProt P35372) | cAMP inhibition reversal, antagonist |  | added: fentanyl | baseline: compound IC50 over cannabidiol IC50 | IC50 ratio | ~3.6
CCOP(=O)(OCC)Oc1ccc([N+](=O)[O-])cc1 | Bche |  | ES1+/+ mice, plasma | subcutaneous, 0.2 mg/kg, 0.5 h, toxicant challenge |  | inhibition | 70.5 ± 1.8%
CCOP(=O)(OCC)Oc1ccc([N+](=O)[O-])cc1 | Acetylcholinesterase (ache, Electrophorus electricus, UniProt O42275) | irreversible inhibitor, Ellman |  | electric eel enzyme |  | bimolecular inhibition rate constant | 5000 M⁻¹ s⁻¹
CC(C)OP(=S)(OC(C)C)SCCNS(=O)(=O)c1ccccc1 | Acetylcholinesterase (ACHE, Homo sapiens, UniProt P22303) | enzyme activity, inhibitor, colorimetric |  | human liver microsomes with NADPH |  | IC50 | inactive
C[C@@H]1NC(=O)[C@H](CCCNC(=N)N)NC(=O)[C@H](CCCNC(=N)N)NC(=O)[C@H](Cc2c[nH]cn2)NC(=O)[C@H](CO)NC(=O)[C@H](CCCCN)NC(=O)[C@@H]2CSSC[C@H](NC(=O)CN)C(=O)N[C@@H](CSSC[C@@H](C(N)=O)NC(=O)[C@H](CCCNC(=N)N)NC1=O)C(=O)N[C@@H](CO)C(=O)N[C@@H](Cc1c[nH]cn1)C(=O)N1CCC[C@H]1C(=O)N[C@@H](C)C(=O)N2 | Neuronal acetylcholine receptor; alpha9/alpha10 (Homo sapiens, UniProt Q9GZZ6+Q9UGM1) | ion current, antagonist | Xenopus oocytes | 10 µM, 5 min, added: acetylcholine | baseline: control | remaining response | 0.7 ± 0.4%
CC(=O)c1cnc2c(=O)[nH]c(N)nc2n1 | Ricin A chain | differential scanning fluorimetry |  | 500 µM, pH 7.5, 2 µM protein |  | ΔTm | 1.3 °C
Cc1cc(=O)oc2cc(NC(=O)CNC(=O)CNC(=O)[C@H](CCCNC(=N)N)NC(=O)[C@H](CC(C)C)NC(=O)[C@H](CCCNC(=N)N)NC(=O)OCc3ccccc3)ccc12 | Replicase polyprotein 1a, papain-like protease (Severe acute respiratory syndrome-related coronavirus, UniProt P0C6U8) | protease activity, substrate |  | pH 7.5 |  | Km | 75.9 µM
O=C(O)C1=CS[C@@H]2/C(=C\c3cc4n(n3)CSCC4)C(=O)N12 | blaC (Mycobacterium tuberculosis, UniProt P9WKD3) | inactivation, nitrocefin inactivation kinetics |  |  |  | KI | 200 nM
Nc1nc2nc(C(=O)NCc3ccco3)cnc2c(=O)[nH]1 | Ricin A chain | differential scanning fluorimetry |  | 500 µM, pH 7.5, 2 µM protein |  | ΔTm | 2 °C
Cc1cc2c(-c3ccco3)cnc(N[C@@H]3CCN(C)C[C@H]3C(=O)NC3CCCCC3)c2[nH]c1=O | Kappa-type opioid receptor (OPRK1, Homo sapiens, UniProt P41145) | binding, radioligand binding |  | 10 µM |  | inhibition | 28.1%
CCOP(=S)(OCC)Oc1cc(C)nc(C(C)C)n1 | Bche |  | ES1+/+ mice, plasma | subcutaneous, 50.0 mg/kg, 2.0 h, toxicant challenge |  | inhibition | 82 ± 3.1%
O=CN1CC[C@]23c4c5ccc(O)c4O[C@H]2[C@@H](O)C=C[C@H]3[C@H]1C5 | Mu-type opioid receptor (Oprm1, Rattus norvegicus, UniProt P33535) |  |  |  | baseline: morphine | affinity decrease | 290 fold
